Assay results gathered from unrelated publications.
Protocols differ between the studies behind these lines. ± gives the spread as reported.

Compound | organism | assay | system | conditions | MIC
Cc1ccc(S(=O)(=O)N2C(=O)CSC2c2ccccc2O)cc1 (centres unmarked) | Streptococcus pneumoniae | broth microdilution | ATCC 49619 |  | 128 µg/mL
Oc1c(I)cc(Cl)c2cccnc12 | Cryptococcus neoformans |  | H99 wild type | 48 h, 30 °C, SC medium, no added copper | 50 µM
CN(C)c1ccc(O)c2c1C[C@H]1C[C@H]3[C@H](N(C)C)C(O)=C(C(N)=O)C(=O)[C@@]3(O)C(O)=C1C2=O | Streptococcus pneumoniae |  | 157E | 50% mouse serum | 0.125 µg/mL
Clc1ccc2nc(-c3ccc(OCCN4CCOCC4)cc3)[nH]c2c1 | Enterococcus faecalis | microbial growth, broth dilution | ATCC29212 |  | 0.25 to 1 µg/mL
Cc1ccc(S(=O)(=O)N2C(=O)CSC2c2ccc(O)cc2)cc1 (centres unmarked) | Streptococcus pneumoniae | broth microdilution | ATCC 49619 |  | 32 µg/mL
O=C(COc1ccc(-c2nc3ccc(F)cc3[nH]2)cc1F)N1CCOCC1 | Enterococcus faecalis | microbial growth, broth dilution | ATCC29212 |  | > 256 µg/mL
CC1(C)S[C@@H]2[C@H](NC(=O)[C@H](N)c3ccccc3)C(=O)N2[C@H]1C(=O)O | Lacticaseibacillus paracasei subsp. paracasei | broth microdilution | ATCC 27216, MRS medium | 24 h, 37 °C | 2.5 ± 0.2 µg/mL
Fc1ccc2nc(-c3ccc(OCc4cn(CCN5CCOCC5)nn4)cc3)[nH]c2c1 | Enterococcus faecalis | microbial growth, broth dilution | ATCC29212 |  | 0.25 µg/mL
CCN(CC)C(=S)SSC(=S)N(CC)CC | Cryptococcus neoformans |  | H99 wild type | 48 h, 30 °C, SC medium, with: CuSO4 0.01 mM | 2 µM
Cc1ccc(S(=O)(=O)N2C(=O)CSC2c2cccc(C)c2)cc1 (centres unmarked) | Streptococcus pneumoniae | broth microdilution | ATCC 49619 |  | 128 µg/mL
Cc1c(CN(C)C(=O)/C=C/c2cnc3c(c2)CCC(=O)N3)oc2ccccc12 | Gram-negative ESKAPE pathogens, Escherichia coli |  |  | up to solubility limit | > 32 µg/mL
c1ccc2[nH]c(-c3ccc(OCc4cn(CCN5CCOCC5)nn4)cc3)nc2c1 | Enterococcus faecalis | microbial growth, broth dilution | ATCC29212 |  | 0.25 µg/mL
Cc1ccc(S(=O)(=O)N2C(=O)CSC2c2cccc(Br)c2)cc1 (centres unmarked) | Streptococcus pneumoniae | broth microdilution | ATCC 49619 |  | 64 µg/mL
O=C(O)c1ccc(-n2nc(-c3ccccc3O)nc2-c2ccccc2O)cc1 | Cryptococcus neoformans | microbial growth, broth dilution |  | 48 h | > 100 µM

Some of these lines once more:
Compound | organism | assay | system | conditions | MIC
CCN(CC)C(=S)SSC(=S)N(CC)CC | Cryptococcus neoformans |  | H99 wild type | 48 h, 30 °C, SC medium, with: CuSO4 0.01 mM | 2 µM
Cc1ccc(S(=O)(=O)N2C(=O)CSC2c2cccc(C)c2)cc1 (centres unmarked) | Streptococcus pneumoniae | broth microdilution | ATCC 49619 |  | 128 µg/mL
